Experimental data pooled from the literature.
Compare with care: the assays were run in different laboratories. Values joined by “and” are separate records of one study, mostly repeats; a detail may differ. Numbers after ± are the reported error.
Voltage-dependent P/Q-type calcium channel subunit alpha-1A: Voltage-dependent P/Q-type calcium channel subunit alpha-1A (Homo sapiens, UniProt O00555)
Rab GDP dissociation inhibitor beta with Rab1A: Rab GDP dissociation inhibitor beta, with Rab1A (Homo sapiens, UniProt P50395)
CHRM5: Muscarinic acetylcholine receptor M5 (CHRM5, Homo sapiens, UniProt P08912)
UCHL1: Ubiquitin carboxyl-terminal hydrolase isozyme L1 (UCHL1, Homo sapiens, UniProt P09936)
MAP3K4: Mitogen-activated protein kinase kinase kinase 4 (MAP3K4, Homo sapiens, UniProt Q9Y6R4)

With `C[C@@H](NC(=O)[C@H](CCCCNC(=O)C(F)(F)F)NS(C)(=O)=O)C(=O)N[C@@H](CCCNC(=N)N)C(N)=O` the inhibition was less than 5% (SIRT2 (Homo sapiens, UniProt Q8IXJ6); enzyme activity, inhibitor; 100 µM).
With `NCCNC(=O)c1ccc(Cl)cn1` the inhibition was 5% (Voltage-dependent P/Q-type calcium channel subunit alpha-1A; ion current, antagonist; HEK293; 30 µM).
For `CN1CCN(c2cc(-c3ccncc3)c(-c3ccc4ccccc4c3)nn2)CC1`, the inhibition was -3.4% (CCR3 (Homo sapiens, UniProt P51677); antagonist, FLIPR; 10 µM).
The inhibition of `Cc1cc(C)cc(COc2cc3c(cc2OCc2cc(C)cc(C)c2)[C@H]2C[C@](O)(Cc4cn(CC5CC5)nn4)C[C@H](C)N2CC3)c1` is reported as 86.5% (Rab GDP dissociation inhibitor beta with Rab1A; GDI2-Rab1A interaction, NanoLuc complementation; 6.25 µM).
For `CC(=O)Nc1ccc(O)cc1`, the inhibition was 19% (Voltage-dependent P/Q-type calcium channel subunit alpha-1A; ion current, antagonist; HEK293; 30 µM).
For `O=C(Nc1cccc2c(=O)cc(-c3nnn[nH]3)oc12)c1ccc(OCCCCc2ccccc2)cc1`, the inhibition was 86.1% and 70.9% and 53.1% and 71.3% (Volume-regulated anion channel subunit LRRC8C, part LRRC8A IL1 chimera (LRRC8C, Homo sapiens, UniProt Q8TDW0); ion current, inhibitor, whole-cell patch clamp; HCT LRRC8-/- cells, transfected; 3 µM, low ionic strength swelling, +100 mV).
`COc1cc2ncnc(Nc3ccc(Oc4ccccc4)c(C)c3C)c2cc1OC` has an inhibition of 83% (LYN (Homo sapiens, UniProt P07948); kinase activity, inhibitor; 1 µM).
The inhibition of `NC(=S)Nc1ccc(Cl)c(Cl)c1` is reported as 24.3% (SLC2A1 (Homo sapiens, UniProt P11166); D-glucose exchange; 100 µM, 10 °C, together with: 20 mM D-glucose).
For `OCCCN1CC[C@@H]2C[C@H]1c1cc(-c3ccc(C(F)(F)F)cc3)ccc12`, the inhibition was less than 50% (CHRM5; radioligand binding, PDSP competition binding; 10 µM).
With `Cc1nn(-c2nc3c(F)cc(F)cc3s2)c(O)c1C(c1ccccc1C(F)(F)F)c1c(C)nn(-c2nc3c(F)cc(F)cc3s2)c1O` the inhibition was 90.7% (Cyclic GMP-AMP synthase, catalytic domain; with DNA (CGAS, Homo sapiens, UniProt Q8N884); cGAS phase separation, inhibitor; 50 µM).
With `CC[C@@H]1[C@H](F)C(=O)N[C@@H]1COc1nccc2cc(C(N)=O)c(OC)cc12` the inhibition was -8.6% (EPHA7 (Homo sapiens, UniProt Q15375); ATP probe binding, KiNativ profiling, measured: activation loop probe site; THP-1 cell lysate; 0.01 mM).
`N#CC(=Cc1ccccc1Cl)C(=O)NCc1ccccc1` gave a labelling of 35% (UCHL1; covalent, intact protein LC-MS; 12.5 µM).
With `[2H]c1cc(C)c(NC(=O)c2cnc(Nc3cc(N4CCCCC4)nc(C)n3)s2)c(Cl)c1` the inhibition was greater than 50% (TNK2 (Homo sapiens, UniProt Q07912); 0.001 µM).
`C/C=C/C(=O)Nc1ccc(Cn2cc(C[C@@]3(O)C[C@@H]4c5cc(OCc6cc(C)cc(C)c6)c(OCc6cc(C)cc(C)c6)cc5CCN4[C@@H](C)C3)nn2)cc1` gave an inhibition of 94.9% (Rab GDP dissociation inhibitor beta with Rab1A; GDI2-Rab1A interaction, NanoLuc complementation; 6.25 µM).
For `O=C(NO)c1ccc(CN2CCCCc3ccccc32)c(F)c1`, the inhibition was -6.72% (CHRM5; radioligand binding, radioligand displacement; 10 µM, mean of replicates).
`COc1cc(C=C(C#N)C(N)=O)cc(OC)c1OC` gave a labelling of 8.28% (UCHL1; covalent, intact protein LC-MS; 12.5 µM).
`Cc1cc(C)cc(COc2cc3c(cc2OCc2cc(C)cc(C)c2)[C@H]2C[C@](O)(Cc4cn(Cc5ccc(S(C)(=O)=O)cc5)nn4)C[C@H](C)N2CC3)c1` gave an inhibition of 86.3% (Rab GDP dissociation inhibitor beta with Rab1A; GDI2-Rab1A interaction, NanoLuc complementation; 6.25 µM).
`COc1ccc(F)cc1C(=O)NCc1ccc(-c2nn([C@@H](C)C(F)(F)F)c(N)c2C(N)=O)cc1` gave an inhibition of greater than 90% (TEC (Homo sapiens, UniProt P42680); target engagement, competitive chemoproteomics; human PBMCs; 10 µM).
For `CCN1/C(=C/C(C)=O)Sc2ccc(F)cc21`, inhibition read “no inhibition” (ADRA2C (Homo sapiens, UniProt P18825); TGFα shedding, inhibitor; concentration not given).
With `Cc1cc(C)cc(COc2cc3c(cc2OCc2cc(C)cc(C)c2)[C@H]2C[C@](O)(Cc4cn(Cc5cc(C(F)(F)F)cc(C(F)(F)F)c5)nn4)C[C@H](C)N2CC3)c1` the inhibition was 94% (Rab GDP dissociation inhibitor beta with Rab1A; GDI2-Rab1A interaction, NanoLuc complementation; 6.25 µM).
`O=C(NCCCNS(=O)(=O)c1ccc(OC(F)(F)F)cc1)C1=Cc2ccccc2S1(=O)=O`: inhibition “no inhibition” (PTPN11 (Homo sapiens, UniProt Q06124); enzyme activity; 25 to 30 µM, phosphatase selectivity panel).
For `COc1cc(Cl)c(C(=O)N[C@@H](CN[C@H]2CC[C@@H](N)CC2)Cc2ccc(C#N)cc2)cc1-c1ccc(CN[C@H](C)c2ccc(C)cc2)o1`, the inhibition was 80% (MC4R (Homo sapiens, UniProt P32245); agonist response, antagonist; human cells; 10 µM, MC4 antagonist).
With `OO` the inhibition was 15 ± 4% (Histone acetyltransferase RTT109, with Vps75 (Saccharomyces cerevisiae, UniProt Q07794); enzyme activity, inhibitor; 250 µM, Rtt109-Vps75 complex, no DTT, together with: [3H]acetyl-CoA).
The inhibition of `CC(C)COc1ccc(CNC(=O)N(Cc2ccc(F)cc2)C2CCN(C)CC2)cc1` is reported as 71% (Voltage-dependent P/Q-type calcium channel subunit alpha-1A; ion current, antagonist; HEK293; 3 µM).
`COc1cc(C(=O)NS(=O)(=O)c2ccccc2C)ccc1Cc1cn(C)c2ccc(NC(=O)OC3CCCC3)cc12` gave an inhibition of 65.9% and 73.7% and 67.2% and 51.7% and 56.8% and 59.9% (Volume-regulated anion channel subunit LRRC8C, part LRRC8A IL1 chimera (LRRC8C, Homo sapiens, UniProt Q8TDW0, M48D); ion current, inhibitor, whole-cell patch clamp; HCT LRRC8-/- cells; 30 µM, constitutively open channel, +100 mV).
For `CN(C)CCOC1=Cc2ccccc2Sc2ccc(Cl)cc21`, the inhibition was 98% (Voltage-dependent P/Q-type calcium channel subunit alpha-1A; ion current, antagonist; HEK293; 30 µM).
`Cc1ccc(C(=O)Nc2ccc3ccccc3c2)o1` has an inhibition of 7.02% (A-type voltage-gated potassium channel KCND3 (Rattus norvegicus, UniProt Q62897); ion current, whole-cell patch-clamp; 10 µM, rKv4.3).
With `C[C@H](CCC(C)(C)O)[C@H]1CC[C@H]2[C@@H]3CC=C4C[C@@](C)(O)CC[C@]4(C)[C@H]3CC[C@]12C` the inhibition was 62 ± 5.5% (Glutamate NMDA receptor; GRIN1/GRIN2A (Homo sapiens, UniProt Q05586+Q12879); proton inhibition of current, two-electrode voltage clamp; Xenopus oocytes; concentration not given, current ratio pH 6.8 over pH 7.6, together with: positive allosteric modulator 10 µM).
For `CCN(CC)CCOc1ccc2c(c1)C(=O)c1cc(OCCN(CC)CC)ccc1-2`, the inhibition was greater than 50% (human acetylcholinesterase; enzyme activity, inhibitor; 1 µM).
`[2H]c1cc(C)c(NC(=O)c2cnc(Nc3cc(N4CCC(O)CC4)nc(C)n3)s2)c(Cl)c1` has an inhibition of greater than 50% (EPHA1 (Homo sapiens, UniProt P21709); 0.001 µM).
The inhibition of `Cc1cc(-c2ccnc3[nH]cc(F)c23)cc(F)c1[C@@]1(O)[C@H](C)CN(C2CCS(=O)(=O)CC2)C[C@@H]1C` is reported as 90.5% (LATS1 (Homo sapiens, UniProt O95835); ATP probe binding, KiNativ, measured: Lys2 site; HEK293T cell lysate; 10 µM).
`Cn1cc(-c2cnc3ccc(NC(=O)Nc4ccc(F)c(Br)c4)cc3n2)cn1` gave an inhibition of 4.3% (MAP3K4; kinase binding, KiNativ profiling, measured: Lys2 peptide; PANC-1 lysate; 2.5 µM).
The inhibition of `Cc1cc(-c2ccnc3[nH]cc(F)c23)cc(F)c1[C@@]1(O)[C@H](C)CN(C(=O)CN)C[C@@H]1C` is reported as 66.2% (PIK3C3 (Homo sapiens, UniProt Q8NEB9); ATP probe binding, KiNativ, measured: ATP site; HEK293T cell lysate; 1 µM).
The inhibition of `CC12CC3CC(C)(C1)CC(N)(C3)C2` is reported as 32% (Voltage-dependent P/Q-type calcium channel subunit alpha-1A; ion current, antagonist; HEK293; 30 µM).
With `Cc1cc(C)cc(COc2cc3c(cc2OCc2cc(C)cc(C)c2)[C@H]2C[C@](O)(Cc4cn(CCc5ccccc5)nn4)C[C@H](C)N2CC3)c1` the inhibition was 88.9% (Rab GDP dissociation inhibitor beta with Rab1A; GDI2-Rab1A interaction, NanoLuc complementation; 6.25 µM).
`CC[C@@H]1C(=O)OC[C@@H]1Cc1cncn1C.Cl` gave an inhibition of 8% (Voltage-dependent P/Q-type calcium channel subunit alpha-1A; ion current, antagonist; 10 µM).
With `CC/C(=N\NC(=O)NCc1cccc(O)c1)c1ccc(O)c(C)c1O` the inhibition was -2.3% (MAP3K4; kinase activity; 0.1 µM).
For `CNCCCC12CCC(c3ccccc31)c1ccccc12`, the inhibition was 29% (Voltage-dependent P/Q-type calcium channel subunit alpha-1A; ion current, antagonist; HEK293; 3 µM).
For `COc1cc(-c2cc(C(C)=O)n3ccccc23)cc(OC)c1Cn1ccnc1`, the inhibition was -3.74% (Bromodomain-containing protein 4, BD2 (BRD4, Homo sapiens, UniProt O60885); 1 µM).
`CCc1oc2ccccc2c1C(=O)c1cc(Br)c(O)c(Br)c1` has an inhibition of 45% and 100% and 55% and 44.7% and 95.9% (SLC22A12 (Homo sapiens, UniProt Q96S37, F360A); urate uptake; HEK293T; 0.5 µM, 10 min, 37 °C, together with: 200 µM [14C]urate).
The inhibition of `CCCN1CCCC[C@H]1C(=O)Nc1c(C)cccc1C` is reported as 16% (Voltage-dependent P/Q-type calcium channel subunit alpha-1A; ion current, antagonist; HEK293; 30 µM).
